Measurements gathered from unrelated publications.
Lines come from different studies, so protocols differ. ± gives the spread as reported.

SMILES	test	system	setting	scale	quantity	result
COc1c(N2C[C@@H]3CCCN[C@@H]3C2)c(F)cc2c(=O)c(C(=O)O)cn(C3CC3)c12	–	healthy volunteers	oral, 400 mg single dose, day 5, 1.50 h	–	QTcI change from baseline	0.4 ms
Cc1cc(-c2nccc3c2ccn3CC(=O)Nc2ccc(-c3cnccn3)cn2)ccn1	–	human, plasma	oral, 20 mg once daily, day 1, geometric mean	–	terminal half-life	10.7 h
NC1(C(=O)N[C@@H](CCO)c2ccc(Cl)cc2)CCN(c2nc[nH]c3nccc2-3)CC1	–	human mCRPC patients	oral, twice daily, 4/7 days, grade 3/4, treatment-related, added: enzalutamide 160 mg daily	–	systemic inflammatory response syndrome incidence	0%
CC(=O)O[C@H]1C(=O)[C@@]2(C)[C@H]([C@H](OC(=O)c3ccccc3)[C@]3(O)C[C@H](OC(=O)[C@H](O)[C@@H](NC(=O)c4ccccc4)c4ccccc4)C(C)=C1C3(C)C)[C@]1(OC(C)=O)CO[C@@H]1C[C@@H]2O	–	patients with advanced solid tumours	intravenous, dose not given, phase Ib, possibly related to compound	–	adverse events, any	24%
Cn1cc(Nc2nccc(-c3ccc4c(c3)CN(C3COC3)CC[C@H]4NC(=O)c3cn(C(C)(C)C)nn3)n2)cn1	–	human, whole blood	50 mg twice daily, day 7	relative to: pre-dose baseline	naive B cell count change	162%
CNC(=O)c1ccc(-c2cnc3ncc(Cc4ccc5ncccc5c4)n3n2)cc1F	–	human, healthy subjects, plasma	oral, 200 mg single dose, adjusted geometric mean	–	unbound AUC(0-t)	181 ng·h/mL
NC(=O)c1[nH]cnc1N	–	leiomyosarcoma patients, plasma	intravenous, dose not given, cycle 2 day 1, added: dacarbazine co-administered	relative to: cycle 1 day 1	AUC(0-24h) reduction	61.7%
CCOc1cc(/C=C2\CN(C(C)=O)CC3=C2OC(N)=C(C#N)C3c2ccc(O)c(OCC)c2)ccc1O (centres unmarked)	–	Wistar rats, tumour-bearing	dose not given, day 42	–	body weight	154 ± 0.8 g
CCOCc1nc(O)c(-c2nnc(Cc3ccc(Cl)cn3)o2)c(O)c1-c1c(OC)cccc1OC	–	rat, plasma	subcutaneous infusion, 3 mg/kg/day, day 7 after surgery	–	steady-state plasma concentration	2690 nM
CCOc1c([C@H](C)n2nc(C)c3c(N)ncnc32)cc(Cl)c(F)c1[C@@H]1CNC(=O)C1	refers to: QTcF ≤ 450 ms	previously treated B-cell malignancy	oral, dose not given, all doses, overall population	–	share of ECG observations	94.7%
O=C(Nc1nc2cccc(-c3ccc(CN4CCS(=O)(=O)CC4)cc3)n2n1)C1CC1	refers to: non-cardiac chest pain	human rheumatoid arthritis patients	oral, 300 mg once daily, 4 weeks, regardless of relatedness	–	treatment-emergent adverse events	0%
NC(=O)N1c2ccccc2C=Cc2ccccc21	refers to: total drug-related adverse events	human male	oral, dose not given, AEs, treatment-related, on drug, CTCAE	–	adverse events incidence	67%
CCCC[C@H](NC(=O)[C@@H](NC(=O)[C@H](CCC(=O)O)NC(=O)CNC(=O)[C@@H](NC(=O)[C@H](Cc1ccccc1)NC(=O)[C@H](C)NC(=O)[C@H](CCCCN)NC(=O)CNC(=O)[C@]1(C)CCCC=CCCC[C@](C)(NC(=O)[C@H](Cc2c[nH]cn2)NC(=O)[C@H](CC(C)C)NC(=O)[C@H](Cc2ccccc2)NC(=O)[C@H](CCCCN)NC(=O)CNC(=O)[C@@H](NC(=O)CN)[C@@H](C)CC)C(=O)N[C@@H](C)C(=O)N[C@@H](CCCCN)C(=O)N[C@@H](CCCCN)C(=O)N1)C(C)C)[C@@H](C)CC)C(=O)N[C@@H](CC(N)=O)C(=O)N[C@@H](CO)C(N)=O	HPLC C18 column	–	–	–	retention time	14 min
C/C(=N\c1ccc(O)cc1)c1cc2ccccc2n1C	–	rat plasma	50 ng/mL, 15 days, -80 °C	relative to: nominal concentration	remaining compound	99.9 ± 3.4%
CC(C)(C(=O)N1CCOc2c(C#N)cncc2C1)C(F)F	refers to: phlebitis	human, both sexes	oral, 10 mg once daily, 14 days, multiple ascending dose	–	subjects with TEAE	0%
CCC(C)n1ncn(-c2ccc(N3CCN(c4ccc(OCC5COC(Cn6cncn6)(c6ccc(Cl)cc6Cl)O5)cc4)CC3)cc2)c1=O (centres unmarked)	–	human, plasma	oral, dose not given, day 17 predose, mean	–	trough plasma concentration	183 ng/mL
O=C(c1cccnc1-c1ccncc1)N1CCC(O)(Cc2ccccc2)CC1	–	healthy Japanese adults, plasma	oral, 600 mg single dose	–	Vz/F	2340 L

For quick reference, copied from above:
SMILES	test	system	setting	scale	quantity	result
CNC(=O)c1ccc(-c2cnc3ncc(Cc4ccc5ncccc5c4)n3n2)cc1F	–	human, healthy subjects, plasma	oral, 200 mg single dose, adjusted geometric mean	–	unbound AUC(0-t)	181 ng·h/mL
NC(=O)c1[nH]cnc1N	–	leiomyosarcoma patients, plasma	intravenous, dose not given, cycle 2 day 1, added: dacarbazine co-administered	relative to: cycle 1 day 1	AUC(0-24h) reduction	61.7%
CCOc1cc(/C=C2\CN(C(C)=O)CC3=C2OC(N)=C(C#N)C3c2ccc(O)c(OCC)c2)ccc1O (centres unmarked)	–	Wistar rats, tumour-bearing	dose not given, day 42	–	body weight	154 ± 0.8 g
